Published values of several laboratories.
Protocols differ between the studies behind these lines. ± gives the spread as reported.

SMILES	cell line	test	setting	how to read	endpoint	result
CS(C)=O.CS(C)=O.[Cl][Cu][Cl].c1ccc(-c2nnc(-c3ccc4c(c3)OCO4)[nH]2)nc1	T24	PI flow cytometry	5.3 µM, 24 h	–	cells in G0/G1 phase	36.5%
FC(F)(F)c1ccnc(-c2cc(C(F)(F)F)ccn2)c1.FC(F)(F)c1ccnc(-c2cc(C(F)(F)F)ccn2)c1.[Cl-].[Cl-].[Ru+2].c1csc(-c2ccc(-c3ccc(-c4nc5c6cccnc6c6ncccc6c5[nH]4)s3)s2)c1	SK-MEL-28	–	normoxia, added: green light 523 nm	–	phototherapeutic index	548
N#Cc1ccc(C=O)o1	human sickle cell (SS) red blood cells	RBC morphology	2 mM, 2 h, 37 °C, hypoxia 2.5% O2, haematocrit 20%	baseline: untreated	inhibition of sickling	48%
CC(=O)OC[C@H]1O[C@@H](Sc2sc(C(=O)c3ccc(C)cc3)c(N)c2-c2nc3ccccc3s2)[C@H](OC(C)=O)[C@@H](OC(C)=O)[C@H]1OC(C)=O	NCI-H522	SRB	10 µM, 48 h	baseline: untreated	growth	82.6%
C[C@H](NC(=O)[C@H](CCC(N)=O)NC(=O)[C@H](Cc1c[nH]c2ccccc12)NC(=O)[C@@H](N)CCCNC(=N)N)C(=O)N[C@@H](CCCNC(=N)N)C(=O)N[C@@H](Cc1c[nH]c2ccccc12)C(=O)N[C@@H](CCC(N)=O)C(=O)N[C@@H](Cc1c[nH]c2ccccc12)C(=O)N[C@@H](CCCNC(=N)N)C(N)=O	young human fibroblasts primary	MTT	concentration not given, 2 h, 37 °C, 5% FBS	baseline: untreated cells	viability	100 ± 4%
O=C(Cn1c(=O)c(Cc2ccccc2)nc2ccccc21)OCCNCCO	HCT-116	qRT-PCR, refers to: p53	concentration not given, 72 h	baseline: untreated	mRNA level	5.312 ± 0.012 fold
CCCC(C)NC(=O)C(Nc1ccccc1C(=O)c1ccccc1)c1cn(C)c2ccccc12 (stereo not drawn)	BE(2)-C	cell growth or viability, MTT	72 h	–	GI50	5.4 µM
C=CCSc1nc(N)c2c(F)c(C#N)c(F)c(Cl)c2n1	HCT-116	DAPI staining imaging	1.02 µM, 24 h	–	cells in G1 phase	47.7%
COc1cc(CNC(=O)C[C@H](C)CCC=C(C)C)ccc1OCc1cn(-c2ccccc2[N+](=O)[O-])nn1	UO-31	SRB	10 µM, 48 h	–	growth percent	36.5%
C=C[C@H](OC(C)=O)c1ccc(OC(C)=O)cc1	MDA-MB-231	Western blot	IC50, 24 h	baseline: untreated	p53 protein level	3.3 fold
COc1ccc(NC(=O)COc2ccc(/C=C/C(C)=N/O)cc2OC)cc1	SH-SY5Y	DCFDA flow cytometry	2.5 µM, added: amyloid beta 10 µM	–	ROS positive cells	77.7%
CCC(=C(c1ccc(Cl)cc1)c1ccc(OCCCN(C)C)cc1)c1ccc(OC)cc1	Malme-3M	cell growth or viability, SRB	–	–	GI50	1.2 µM
COc1cc(CNC(=O)C[C@H](C)CCC=C(C)C)ccc1OCc1cn(-c2ccc(Cl)c(Cl)c2)nn1	NCI/ADR-RES	SRB	10 µM, 48 h	–	growth	36.5%
C=CC(OC(C)=O)c1cc(OC)c(OC(C)=O)c(OC)c1 (stereo not drawn)	MDA-MB-231	cell growth or viability, MTT	–	–	IC20	12 µM
CC(=O)Oc1ccccc1C(=O)[O][Pt]([NH2])([NH2])([Cl])([Cl])[O]C(=O)CCCc1ccccc1	HEK293 and BCPAP	cytotoxicity, MTT	–	baseline: IC50 HEK293 over IC50 BCPAP	selectivity index	1.8
Cc1nn(-c2ccc(S(=O)(=O)N[C@@H](CO)CC(C)C)cc2)c2nn3nnnc3nc12	HT-29	PI/Hoechst staining	2 µM, 24 h	–	apoptotic cells	39 ± 5.7%
Cc1ccc(C(C)C)cc1.[Au][S]C1=NCCS1.[Cl][Ru][Cl].c1ccc(P(CP(c2ccccc2)c2ccccc2)c2ccccc2)cc1	HCT-116	cell growth, trypan blue exclusion	48 h, DMSO 1%	–	IC75	12.3 ± 0.2 µM
CCN(CC)CC(=O)Nc1cccc(-n2cc(-c3ccc4ccc(-c5cn(-c6cccc(NC(=O)CN(CC)CC)c6)nn5)cc4c3)nn2)c1	786-0 cells	Western blot	1 x IC50, 4 h, hypoxia	baseline: untreated	HIF-2α protein level	61%
COC(=O)CCNC(=O)CNC(=O)CCn1nc(Cc2ccccc2)c2ccccc2c1=O	HCT-116	–	concentration not given	–	G1 phase cells	41.3%
COc1ccc([C@@H]2CC(=O)c3c(O)cc(O[C@@H]4O[C@H](CO[C@@H]5O[C@@H](C)[C@H](O)[C@@H](O)[C@H]5O)[C@@H](O)[C@H](O)[C@H]4O)cc3O2)cc1O	A549	trypan blue exclusion	50 µg/mL, 24 h	–	cell count	15000 ± 505
Cc1c(C)c(C)[c-](C)c1C.[C-]#[O+].[C-]#[O+].[C-]#[O+].[Cl-].[Cl-].[Cl-].[Ir+3].[Re+].c1cnc(-c2ncccn2)nc1	MDA-MB-468	DCFDA flow cytometry	50 µM	–	ROS-positive cells	73%
CCn1nc2c(c1Nc1nc(-c3ccc(-n4cnc(C)c4)c(OC)n3)cs1)CCCC2	SH-SY5Y-APP	ELISA	–	baseline: Aβ40 IC50 over Aβ42 IC50	selectivity ratio	> 3 fold
COc1cc(CNC(=O)C[C@H](C)CCC=C(C)C)ccc1O	UO-31	SRB	10 µM, 48 h	–	growth percent	60.7%

SMILES	cell line	test	setting	how to read	endpoint	result
COc1ccc([C@@H]2CC(=O)c3c(O)cc(O[C@@H]4O[C@H](CO[C@@H]5O[C@@H](C)[C@H](O)[C@@H](O)[C@H]5O)[C@@H](O[C@H]5O[C@H](CO)[C@@H](O)[C@H](O)[C@H]5O)[C@H](O)[C@H]4O)cc3O2)cc1O	A549	cell migration, scratch	150 µg/mL, 72 h	–	gap closure	5.99 ± 0.26%
CO[C@H]1O[C@H](COC(c2ccccc2)(c2ccccc2)c2ccccc2)[C@@H](OS(=O)(=O)c2ccccc2)[C@H](OS(=O)(=O)c2ccccc2)[C@H]1OS(=O)(=O)c1ccccc1	Ehrlich	cell growth or viability, MTT	125 µg/mL, 24 h	–	inhibition	5.45%
COc1cc(CNC(=O)C[C@H](C)CCC=C(C)C)ccc1OCc1cn(-c2ccc(Br)cc2)nn1	SNB-75 CNS cancer cells	SRB	10 µM, 48 h	–	growth percent	47.3%
O=C(CSc1nc2ccccc2s1)Nc1nonc1[N+](=O)[O-]	Ramos	cell viability, CellTiter-Glo	–	–	GI50	~7.6 µM
COc1cc(CNC(=O)C[C@H](C)CCC=C(C)C)ccc1OCc1cn(-c2ccc(F)cc2)nn1	COLO 205	SRB	10 µM, 48 h	–	growth percent	97.2%
CC1(C)C(=CC=C2CCCC(C=CC3=[N+](CCCCCC(=O)O)c4ccccc4C3(C)C)=C2c2ccccc2)N(CCCCCC(=O)O)c2ccccc21	MDA-MB-231	–	added: 10% FBS	baseline: serum-free medium	cellular uptake	decreased
Cc1cc2c(c(=O)o1)C=C1CCC(C(C)CNCc3ccc(O)cc3)CC1O2 (stereo not drawn)	MC65	western blot, refers to: Aβ-OC high molecular weight oligomers	concentration not given, 24 h after tetracycline withdrawal	–	reduction of Aβ oligomers	80%
OC(CN1CCNCC1)Cn1c2ccc(Br)cc2c2cc(Br)ccc21 (stereo not drawn)	BAK knockout MEF	apoptosis, inhibitor	2 µM, 8 h, added: TNFα and cycloheximide	–	caspase-3/7 activity	inhibited
O=C(N1CCCC1)n1cc(-c2ccc(-c3ccccc3)cc2)nn1	mouse T-cells	N-terminal labeled proteins, N-terminal enrichment proteomics, refers to: TPI1	1 nM, 6 h	baseline: DMSO	SILAC ratio	1 ± 0.07
COc1cc(CNC(=O)C[C@H](C)CCC=C(C)C)ccc1OCc1cn(-c2cccc(C(F)(F)F)c2)nn1	SK-MEL-28 melanoma cells	SRB	10 µM, 48 h	–	growth percent	91.5%
CSc1nc(Nc2ccc(/C(C)=N/NC(=O)c3ccc([N+](=O)[O-])cc3[N+](=O)[O-])cc2)c(C#N)c(-c2ccccc2)n1	HCT-116	ELISA	concentration not given, unit not given	baseline: negative control	caspase-3 level	5.4
N#Cc1cccc(-c2ccc(=O)n(Cc3cccc(-c4ncc(OCC5CCN(CC(=O)N6CCN(c7ccc8c(c7)C(=O)N(C7CCC(=O)NC7=O)C8=O)CC6)CC5)cn4)c3)n2)c1 (stereo not drawn)	EBC-1, Hs746T	Western blot, refers to: phospho-MET	10 and 100 nM, sustained 24 h	–	time to complete inhibition	6 h
CCCCCCCCCCCCCCCOC(=O)/C=C/c1cc(O)c(O)c(OC)c1	MDA-MB-231	propidium iodide flow cytometry	concentration not given, 24 h	–	cells in G2/M phase	25%
COc1cc(CNC(=O)C[C@H](C)CCC=C(C)C)ccc1OCc1cn(-c2ccccc2F)nn1	UO-31	SRB	10 µM, 48 h	–	growth percent	71.9%
O=Cc1c(O)ccc2ccccc12	HUVEC	RNA sequencing, refers to: POLE2	75 µM, 24 h	baseline: DMSO	log2 fold change	-3.14
O=C1Nc2ccc(Cl)cc2C1=Cc1c(Cl)[nH]c2c1ccc1ccccc12	CNS cancer subpanel of NCI-60	–	48 h	–	TGI	5.37 µM
CCCC(CCC)C(=O)[O][Pt]([NH2])([NH2])([Cl])([Cl])[O]C(=O)c1ccccc1OC(C)=O	six human cancer lines	cytotoxicity, MTT	–	baseline: oxaliplatin	IC50 fold lower	~3 fold
COc1cc(/C=C/c2cc(C)n[nH]2)ccc1O	CHO	DCF-DA	10 µM, 2 h pretreatment, read 30 min post-irradiation, added: 2 Gy radiation	baseline: irradiated control	reduction in ROS level	30%
Cc1cc([C@H](C(=O)N2C[C@H](O)C[C@H]2C(=O)N[C@@H](CC(=O)N2CCC(N3CCC(C#Cc4ccc(C(=O)N[C@H]5C(C)(C)[C@H](Oc6ccc(C#N)c(Cl)c6)C5(C)C)cc4)CC3)CC2)c2ccc(-c3scnc3C)cc2)C(C)C)on1	HCC1428	flow cytometry	72 h	–	apoptosis-inducing concentration	0.25 µM
COc1cc([C@@H]2c3cc4c(cc3[C@@H](OCc3cc(-c5cc(C#N)cc(C#N)c5)no3)[C@H]3COC(=O)C23)OCO4)cc(OC)c1OC (stereo partly drawn)	MIA PaCa-2	cell growth or viability, SRB	48 h	–	GI50	1.03 µM
C[C@H](NC(=O)[C@H](Cc1c[nH]c2ccccc12)NC(=O)[C@@H](N)CCCNC(=N)N)C(=O)N[C@@H](Cc1c[nH]c2ccccc12)C(=O)N[C@@H](CCCNC(=N)N)C(=O)N[C@@H](Cc1c[nH]c2ccccc12)C(=O)N[C@@H](CCC(N)=O)C(=O)N[C@@H](Cc1c[nH]c2ccccc12)C(=O)N[C@@H](CCCNC(=N)N)C(N)=O	young human fibroblasts primary	MTT	concentration not given, 2 h, 37 °C, 5% FBS	baseline: untreated cells	viability	100 ± 3%
CC/C=C\C/C=C\C/C=C\C/C=C\C/C=C\C/C=C\CCC(=O)Nc1ccn(C2OC(CO)C(O)C2(F)F)c(=O)n1 (stereo not drawn)	NCI-H522	NCI60 screen	–	–	TGI	14.2 µM
